# Measured values from different studies.
# ± marks the error that the study gave.
SMILES,tested on,assay,system,conditions,how to read,quantity,result
C=CC(=O)N1[C@H](c2ccc3c(c2)OCO3)c2[nH]c3ccccc3c2C[C@@H]1C(=O)N1CCN(C)CC1,human cyclin E1 N112C-3xFLAG:CDK2,"co-IP with TMT proteomics, item: SNRNP200",,"concentration not given, O75643",relative to: wild type DMSO,relative co-enrichment,135%
Cc1ccc(/C=N/N=C(\S)Nc2cccc(S(=O)(=O)N(C)C)c2)o1,Mus musculus,"gene silencing, high-content imaging",LDR reporter GFP cells,"confirmation, mean of two runs",,EC50,14100 nM
CC[n+]1cccc2cc(/C=N/NC(=O)C(=O)N/N=C/c3ccc4c(ccc[n+]4CC)c3)ccc21,MYC parallel G4 DNA,FRET melting,,"1 µM, DNA 0.2 µM",,ΔTm,3.6 ± 0.4 °C
COC1OC(C)C(O)C(OC2OC(C)C(O)C(OC3OC(C)C(O)C(OC4OC(C)C(O)C(OS(=O)(=O)O)C4OS(=O)(=O)O)C3OS(=O)(=O)O)C2OS(=O)(=O)O)C1OS(=O)(=O)O (stereo not drawn),,,human plasma,128 µg/mL,relative to: control,prothrombin time prolongation,0.98 fold
CCN(CC)CC(=O)Nc1cccc(-n2cc(-c3ccc4ccc(-c5cn(-c6cccc(NC(=O)CN(CC)CC)c6)nn5)cc4c3)nn2)c1,RCC4,"PCR angiogenesis array, item: JAG1",,"5 x IC50, 2 h, normoxia",relative to: untreated,fold regulation,-1.14
Nc1ncc(-c2cc(-c3cnn(CC(F)(F)F)c3)ncc2F)nc1C(=O)NC1CNCC(F)C1 (stereo not drawn),MST1R,KINOMEscan,,1 µM,relative to: DMSO control,remaining binding,100%
O=C(N/N=C/c1ccc2c(ccc[n+]2Cc2ccccc2)c1)c1cc(C(=O)N/N=C/c2ccc3c(ccc[n+]3Cc3ccccc3)c2)ncn1,hp2 hairpin duplex DNA,FRET melting,,1 µM,,ΔTm,1.4 ± 1.1 °C
COCC/N=C(\S)N/N=C(\C)c1ccccc1O,Mus musculus,"gene silencing, high-content imaging",LDR reporter GFP cells,"30 h, retest run 1",,Emax,63%
C=CC(=O)Nc1cccc(Cn2ncc3cnc(Nc4cnn(CCOC)c4)nc32)c1,human MEK1,KINOMEscan,,100 nM,relative to: control,binding,100%
COC1OC(C)C(OC2OC(C)C(OS(=O)(=O)O)C(OC3OC(C)C(OC4OC(C)C(OS(=O)(=O)O)C(OC5OC(C)C(OC6OC(C)C(OS(=O)(=O)O)C(OC7OC(C)C(OC8OC(C)C(OS(=O)(=O)O)C(OC9OC(C)C(OS(=O)(=O)O)C(OS(=O)(=O)O)C9O)C8O)C(OS(=O)(=O)O)C7O)C6O)C(OS(=O)(=O)O)C5O)C4O)C(OS(=O)(=O)O)C3O)C2O)C(OS(=O)(=O)O)C1O (stereo not drawn),,,human plasma,128 µg/mL,,prothrombin time,15.1 ± 0.5 s
O=C(N/N=C/c1cc[n+](CC2CC2)c2ccccc12)c1cccc(C(=O)N/N=C/c2cc[n+](CC3CC3)c3ccccc23)n1,MYC parallel G4 DNA,FRET melting,,"1 µM, DNA 0.2 µM, added: duplex DNA competitor 10 µM",,ΔTm,14 ± 0.3 °C
CC(C)(C)c1cc(-c2ccc3cccnc3n2)nc(-c2ccc3cccnc3n2)c1.[Cl-].[Cl-].[Ru+2].c1ccc2cc3nc4c5cccnc5c5ncccc5c4nc3cc2c1,A-375,"photocytotoxicity, resazurin",,"visible light 400-700 nm, 20 mW, 100 J/cm2",,EC50,1940 nM
CC(C)C[C@H](NC(=O)[C@H](CC(=O)O)NC(=O)CNC(=O)[C@@H](N)CCCNC(=N)N)C(=O)N[C@@H](C)C(=O)N[C@H](C(=O)N[C@@H](CC(C)C)C(=O)N[C@@H](CCCNC(=N)N)C(=O)N[C@@H](CCC(N)=O)C(=O)N[C@@H](CC(C)C)C(=O)N[C@@H](C)C(=O)N[C@@H](CCC(N)=O)C(=O)N[C@@H](CCC(=O)O)C(=O)N[C@@H](CC(=O)O)C(=O)NCC(=O)N[C@H](C(=O)N[C@H](C(=O)NCC(=O)N[C@H](C(=O)N[C@@H](CCCNC(=N)N)C(=O)NCCOCCOCCOCCOCCOCCOCCOCCOCCOCCOCCOCCOCCC(=O)N[C@@H](CS)C(N)=O)C(C)C)C(C)C)C(C)C)[C@@H](C)O,,ex vivo NIR imaging,"NOD/SCID mice, xenograft, H460 xenograft","intravenous, 30 µg, 24 h",relative to: spleen,fluorescence signal ratio,16.5
Cc1ccc(C(C)C)c(OCc2ccc(C(=O)N/N=C/c3cccc(O)c3O)cc2)c1,Mus musculus,"gene silencing, high-content imaging",LDR reporter GFP cells,retest run 1,,AC50,2510 nM
c1ccc(-c2n[nH]cc2-c2ccnc3ccccc23)nc1,RIO2 (Candida albicans),"kinase binding, MIB/MS competition",Candida albicans lysate,1 µM,relative to: DMSO,log2 fold change,0.14
CNS(=O)(=O)Nc1nccc(Cc2c(C)c3ccc(Oc4ncccc4F)cc3oc2=O)c1F,SBC-5,cell viability,,7 days,,IC50,> 1000 nM
Oc1c(/N=N/c2ccccn2)ccc2ccccc12,Mus musculus,"gene silencing, high-content imaging",LDR reporter GFP cells,"30 h, retest run 2",,Emax,242%
CC[n+]1cccc2cc(/C=N/NC(=O)c3ccc4ccc5ccc(C(=O)N/N=C/c6ccc7c(ccc[n+]7CC)c6)nc5c4n3)ccc21,hp2 hairpin duplex DNA,FRET melting,,1 µM,,ΔTm,2.7 ± 1.4 °C
CN1CCCNC(=O)c2cccc(c2)C(=O)NCCCN(C)CCCNc2cccc3c2C(=O)c2cccc(c2C3=O)NCCC1,SAS,"RNA-Seq, item: PSD4 mRNA",,"1 µM, 6 h",relative to: untreated cells,log2 fold change,1.29
CC[n+]1cccc2cc(/C=N/NC(=O)c3cccc(C(=O)N/N=C/c4ccc5c(ccc[n+]5CC)c4)c3)ccc21,hp2 hairpin duplex DNA,FRET melting,,1 µM,,ΔTm,0.9 ± 0.1 °C
COC1CN([C@H]2CC[C@H]([C@@]3(C)Oc4c(Cl)cc(C(=O)NCc5c(SC)cc(C)[nH]c5=O)c(C)c4O3)CC2)C1,,"RNA-seq, item: HAS1","human, whole blood","dose not given, 24 h",relative to: pretreatment baseline,log2 fold change,1.18
COC1OC(C)C(O)C(OC2OC(C)C(O)C(OC3OC(C)C(O)C(OC4OC(C)C(O)C(OC5OC(C)C(O)C(OS(=O)(=O)O)C5OS(=O)(=O)O)C4OS(=O)(=O)O)C3OS(=O)(=O)O)C2OS(=O)(=O)O)C1OS(=O)(=O)O (stereo not drawn),,,human plasma,128 µg/mL,,prothrombin time,14.7 ± 0.5 s
O=C(N/N=C/c1ccccn1)c1cc(-c2ccc(Cl)cc2)nc2ccccc12,Mus musculus,"gene silencing, high-content imaging",LDR reporter GFP cells,"30 h, retest run 2",,Emax,149%
O=C(N/N=C/c1cc[n+](CC2CC2)c2ccccc12)c1cccc(C(=O)N/N=C/c2cc[n+](CC3CC3)c3ccccc23)c1,hp2 hairpin duplex DNA,FRET melting,,"1 µM, added: ds26 10 µM",,ΔTm,0.7 ± 0.1 °C
C(=N\Nc1nc(-c2ccccn2)nc2ccccc12)/c1ccccc1,Mus musculus,"gene silencing, high-content imaging",LDR reporter GFP cells,"confirmation, mean of two runs",,EC50,20000 nM
Cc1ncsc1-c1ccc(C(C)NC(=O)C2CC(O)CN2C(=O)C(NC(=O)CCCCCCCCCCN2CCCC(Nc3ncc(Cl)c(Nc4ccccc4S(=O)(=O)C(C)C)n3)C2)C(C)(C)C)cc1 (stereo not drawn),22Rv1,"RNA-seq, item: RGS16 mRNA",,concentration not given,relative to: DMSO,log2 fold change,-1.99
CCC(=O)N1CCN(c2ccc(NC(=O)c3ccc([N+](=O)[O-])o3)cc2Cl)CC1,Mus musculus,"gene silencing, high-content imaging",LDR reporter GFP cells,retest run 2,,AC50,1000 nM
O=C(N/N=C/c1cc[n+](CC2CC2)c2ccccc12)c1ccc2ccc(C(=O)N/N=C/c3cc[n+](CC4CC4)c4ccccc34)nc2n1,MYC parallel G4 DNA,FRET melting,,"1 µM, DNA 0.2 µM, added: duplex DNA competitor 10 µM",,ΔTm,14.8 ± 0.1 °C
O=C(CSc1cccc[n+]1[O-])c1ccccc1Br,Mus musculus,"gene silencing, high-content imaging",LDR reporter GFP cells,"confirmation, mean of two runs",,EC50,28200 nM
C[n+]1cc(/C=N/NC(=O)c2cncc(C(=O)N/N=C/c3cc4ccccc4[n+](C)c3)n2)cc2ccccc21,hp2 hairpin duplex DNA,FRET melting,,1 µM,,ΔTm,0.6 ± 0.1 °C

# A few entries again:
SMILES,tested on,assay,system,conditions,how to read,quantity,result
COC1OC(C)C(O)C(OC2OC(C)C(O)C(OC3OC(C)C(O)C(OC4OC(C)C(O)C(OC5OC(C)C(O)C(OS(=O)(=O)O)C5OS(=O)(=O)O)C4OS(=O)(=O)O)C3OS(=O)(=O)O)C2OS(=O)(=O)O)C1OS(=O)(=O)O (stereo not drawn),,,human plasma,128 µg/mL,,prothrombin time,14.7 ± 0.5 s
CCN(CC)CC(=O)Nc1cccc(-n2cc(-c3ccc4ccc(-c5cn(-c6cccc(NC(=O)CN(CC)CC)c6)nn5)cc4c3)nn2)c1,RCC4,"PCR angiogenesis array, item: JAG1",,"5 x IC50, 2 h, normoxia",relative to: untreated,fold regulation,-1.14
